# Results gathered from unrelated publications.
# A part holds a random share of what one study measured. Values joined by “and” are separate records of one study, mostly repeats; a detail may differ.
# UniProt O15111, sequence (whole entry, looked up): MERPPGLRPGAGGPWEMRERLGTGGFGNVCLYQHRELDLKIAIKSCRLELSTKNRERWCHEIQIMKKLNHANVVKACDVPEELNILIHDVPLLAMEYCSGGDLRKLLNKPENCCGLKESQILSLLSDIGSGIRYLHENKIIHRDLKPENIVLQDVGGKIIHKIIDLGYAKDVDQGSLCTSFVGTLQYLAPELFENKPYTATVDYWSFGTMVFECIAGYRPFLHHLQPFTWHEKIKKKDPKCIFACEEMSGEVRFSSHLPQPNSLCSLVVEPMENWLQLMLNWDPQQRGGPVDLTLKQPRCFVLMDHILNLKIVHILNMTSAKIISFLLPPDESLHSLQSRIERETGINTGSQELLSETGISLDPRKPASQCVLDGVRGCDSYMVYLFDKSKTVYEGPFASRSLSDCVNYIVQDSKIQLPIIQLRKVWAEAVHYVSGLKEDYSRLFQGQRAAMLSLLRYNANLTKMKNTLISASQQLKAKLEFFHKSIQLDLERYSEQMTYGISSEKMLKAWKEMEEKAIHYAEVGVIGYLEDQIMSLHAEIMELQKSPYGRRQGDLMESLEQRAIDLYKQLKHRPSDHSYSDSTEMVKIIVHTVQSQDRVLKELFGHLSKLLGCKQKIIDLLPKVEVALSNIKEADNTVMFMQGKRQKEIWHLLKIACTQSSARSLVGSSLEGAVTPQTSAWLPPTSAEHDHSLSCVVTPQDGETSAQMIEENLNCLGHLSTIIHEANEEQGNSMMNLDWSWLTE
# UniProt P53779, sequence (whole entry, looked up): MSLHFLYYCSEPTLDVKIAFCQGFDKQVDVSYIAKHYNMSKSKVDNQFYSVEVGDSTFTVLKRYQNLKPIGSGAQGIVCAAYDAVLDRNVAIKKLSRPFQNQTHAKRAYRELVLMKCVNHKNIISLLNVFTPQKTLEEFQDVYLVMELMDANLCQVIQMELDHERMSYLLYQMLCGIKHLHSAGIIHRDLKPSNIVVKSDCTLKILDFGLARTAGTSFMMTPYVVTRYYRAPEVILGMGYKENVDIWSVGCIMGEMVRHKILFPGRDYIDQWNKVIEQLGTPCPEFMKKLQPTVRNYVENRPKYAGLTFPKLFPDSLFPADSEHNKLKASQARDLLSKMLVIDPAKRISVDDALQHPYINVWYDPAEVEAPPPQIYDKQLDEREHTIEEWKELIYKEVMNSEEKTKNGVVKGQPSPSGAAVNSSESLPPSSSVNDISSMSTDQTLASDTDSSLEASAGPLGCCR
# UniProt Q9UM73, sequence (whole entry, unmodified, looked up): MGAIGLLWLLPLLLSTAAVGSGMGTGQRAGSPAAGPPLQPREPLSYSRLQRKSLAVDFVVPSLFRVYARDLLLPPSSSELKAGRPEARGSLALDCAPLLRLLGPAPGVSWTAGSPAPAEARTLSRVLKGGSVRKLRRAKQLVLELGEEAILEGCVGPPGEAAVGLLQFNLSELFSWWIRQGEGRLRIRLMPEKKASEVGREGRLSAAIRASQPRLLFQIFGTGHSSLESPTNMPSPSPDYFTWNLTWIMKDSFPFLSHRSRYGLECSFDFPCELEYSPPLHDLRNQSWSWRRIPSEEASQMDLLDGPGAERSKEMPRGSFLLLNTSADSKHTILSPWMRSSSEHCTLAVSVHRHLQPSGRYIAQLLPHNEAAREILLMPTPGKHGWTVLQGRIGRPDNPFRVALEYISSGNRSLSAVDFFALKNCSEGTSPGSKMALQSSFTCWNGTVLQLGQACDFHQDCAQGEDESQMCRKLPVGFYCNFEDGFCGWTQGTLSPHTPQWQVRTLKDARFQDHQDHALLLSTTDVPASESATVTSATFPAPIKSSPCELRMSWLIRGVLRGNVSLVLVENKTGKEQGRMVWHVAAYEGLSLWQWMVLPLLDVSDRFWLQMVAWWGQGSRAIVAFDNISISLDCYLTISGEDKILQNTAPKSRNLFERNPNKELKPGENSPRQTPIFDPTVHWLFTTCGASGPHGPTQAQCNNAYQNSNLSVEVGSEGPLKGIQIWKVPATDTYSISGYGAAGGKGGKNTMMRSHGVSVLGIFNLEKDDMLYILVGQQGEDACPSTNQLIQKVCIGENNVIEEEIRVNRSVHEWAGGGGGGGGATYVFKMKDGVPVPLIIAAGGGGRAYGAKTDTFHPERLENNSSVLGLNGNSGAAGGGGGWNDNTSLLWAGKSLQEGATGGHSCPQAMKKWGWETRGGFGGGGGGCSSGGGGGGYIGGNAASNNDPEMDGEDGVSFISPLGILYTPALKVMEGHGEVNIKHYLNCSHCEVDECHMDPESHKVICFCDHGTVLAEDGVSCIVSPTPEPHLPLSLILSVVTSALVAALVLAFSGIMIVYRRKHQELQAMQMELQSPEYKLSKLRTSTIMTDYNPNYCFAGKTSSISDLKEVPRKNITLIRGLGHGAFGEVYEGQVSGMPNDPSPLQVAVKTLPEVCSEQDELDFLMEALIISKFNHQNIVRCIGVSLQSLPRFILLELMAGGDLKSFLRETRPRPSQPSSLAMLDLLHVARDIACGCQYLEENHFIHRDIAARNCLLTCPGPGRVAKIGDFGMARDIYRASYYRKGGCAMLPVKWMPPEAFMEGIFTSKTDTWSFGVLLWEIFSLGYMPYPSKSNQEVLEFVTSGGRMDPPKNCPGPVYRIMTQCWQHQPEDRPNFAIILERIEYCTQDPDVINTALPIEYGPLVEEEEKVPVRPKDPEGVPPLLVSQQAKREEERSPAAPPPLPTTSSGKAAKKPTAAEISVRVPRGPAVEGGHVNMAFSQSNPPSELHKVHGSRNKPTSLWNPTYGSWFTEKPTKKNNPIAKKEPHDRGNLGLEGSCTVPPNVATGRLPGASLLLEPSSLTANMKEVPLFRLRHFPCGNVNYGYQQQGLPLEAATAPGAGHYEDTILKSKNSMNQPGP
# UniProt P09619, sequence (whole entry, looked up): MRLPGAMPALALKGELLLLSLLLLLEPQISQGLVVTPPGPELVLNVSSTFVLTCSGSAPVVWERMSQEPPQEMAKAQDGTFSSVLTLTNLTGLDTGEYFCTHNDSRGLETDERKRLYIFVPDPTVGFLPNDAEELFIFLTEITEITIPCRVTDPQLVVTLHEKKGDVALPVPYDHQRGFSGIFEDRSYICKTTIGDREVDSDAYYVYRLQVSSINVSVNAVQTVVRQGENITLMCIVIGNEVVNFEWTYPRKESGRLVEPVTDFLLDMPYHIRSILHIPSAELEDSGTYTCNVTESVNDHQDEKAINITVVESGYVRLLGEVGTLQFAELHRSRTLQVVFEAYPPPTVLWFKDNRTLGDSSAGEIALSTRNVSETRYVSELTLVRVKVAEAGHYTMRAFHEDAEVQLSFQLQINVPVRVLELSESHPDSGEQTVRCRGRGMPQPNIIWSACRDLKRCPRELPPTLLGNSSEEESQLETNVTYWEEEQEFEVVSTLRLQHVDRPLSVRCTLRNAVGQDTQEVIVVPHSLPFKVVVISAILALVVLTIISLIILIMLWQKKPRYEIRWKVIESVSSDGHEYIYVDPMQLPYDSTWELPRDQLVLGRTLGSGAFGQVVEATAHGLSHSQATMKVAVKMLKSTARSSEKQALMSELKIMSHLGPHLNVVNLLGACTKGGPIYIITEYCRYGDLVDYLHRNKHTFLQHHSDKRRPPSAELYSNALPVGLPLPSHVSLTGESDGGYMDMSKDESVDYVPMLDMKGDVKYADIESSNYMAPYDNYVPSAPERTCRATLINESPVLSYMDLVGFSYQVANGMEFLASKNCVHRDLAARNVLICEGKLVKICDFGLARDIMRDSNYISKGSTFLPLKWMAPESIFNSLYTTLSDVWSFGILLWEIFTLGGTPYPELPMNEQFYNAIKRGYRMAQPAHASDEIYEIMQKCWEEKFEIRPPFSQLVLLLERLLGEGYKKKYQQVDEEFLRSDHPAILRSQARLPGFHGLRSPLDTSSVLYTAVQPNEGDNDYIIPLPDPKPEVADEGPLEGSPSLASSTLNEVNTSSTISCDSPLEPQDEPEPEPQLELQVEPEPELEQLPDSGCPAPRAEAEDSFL
# UniProt P11802, sequence (whole entry, looked up): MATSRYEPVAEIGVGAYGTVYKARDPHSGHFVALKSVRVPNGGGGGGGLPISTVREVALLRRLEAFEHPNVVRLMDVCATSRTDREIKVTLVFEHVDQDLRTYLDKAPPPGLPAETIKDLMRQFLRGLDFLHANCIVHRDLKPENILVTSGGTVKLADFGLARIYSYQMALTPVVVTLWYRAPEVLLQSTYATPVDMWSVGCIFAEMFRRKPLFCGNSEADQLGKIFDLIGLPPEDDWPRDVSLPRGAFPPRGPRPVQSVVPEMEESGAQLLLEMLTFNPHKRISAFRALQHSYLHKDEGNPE

# Block 1
# Structure (SMILES): CCOC(=O)c1cc2cc(-c3cc(C(=O)NCc4ccc(C(=O)O)cc4)nn3C)ccc2[nH]1
# Effect on: cell-free assay
# Method: competition with immobilised ligand
# Tested at: 0.1 µM
target,remaining binding [%]
"Tyrosine-protein kinase Lck (LCK, Homo sapiens, UniProt P06239)",94
"Ephrin type-B receptor 3 (EPHB3, Homo sapiens, UniProt P54753)",90
"Ephrin type-B receptor 1 (EPHB1, Homo sapiens, UniProt P54762)",100
"Serine/threonine-protein kinase Nek2 (NEK2, Homo sapiens, UniProt P51955)",99
"Mitogen-activated protein kinase 10 (MAPK10, Homo sapiens, UniProt P53779)",100
"Activin receptor type-2B (ACVR2B, Homo sapiens, UniProt Q13705)",91
"Inhibitor of nuclear factor kappa-B kinase subunit alpha (CHUK, Homo sapiens, UniProt O15111)",100
"Serine/threonine-protein kinase WNK2 (WNK2, Homo sapiens, UniProt Q9Y3S1)",85
"Serine/threonine-protein kinase PAK 4 (PAK4, Homo sapiens, UniProt O96013)",100
"ALK tyrosine kinase receptor (ALK, Homo sapiens, UniProt Q9UM73, C1156Y)",82
"Proto-oncogene tyrosine-protein kinase receptor Ret (RET, Homo sapiens, UniProt P07949, V804L)",99
"Serine/threonine-protein kinase WNK3 (WNK3, Homo sapiens, UniProt Q9BYP7)",96
"Transient receptor potential cation channel subfamily M member 6 (TRPM6, Homo sapiens, UniProt Q9BX84)",95
"Cyclin-dependent kinase 4 (CDK4, Homo sapiens, UniProt P11802)",82
"Platelet-derived growth factor receptor beta (PDGFRB, Homo sapiens, UniProt P09619)",86

# Block 2
# Organism: Sarcocystis neurona
# Effect on: parasite activity
# Tested at: 10 µM
# Time: 96 h
SMILES,activity class
NCc1ccc(S(N)(=O)=O)cc1,inactive
CC1(C)S[C@@H]2[C@H](NC(=O)[C@H](N)c3ccc(O)cc3)C(=O)N2[C@H]1C(=O)O,inactive
CN(CCOc1ccc(CC2SC(=O)NC2=O)cc1)c1ccccn1 (centres unmarked),inactive
CN(C)CCOC(c1ccccc1)c1ccccc1,inactive
CCC(=O)O[C@]1(C(=O)SCF)[C@H](C)C[C@H]2[C@@H]3C[C@H](F)C4=CC(=O)C=C[C@]4(C)[C@@]3(F)[C@@H](O)C[C@@]21C,inactive
CCCC(=O)Nc1ccc(OCC(O)CNC(C)C)c(C(C)=O)c1 (centres unmarked),inactive
Cc1onc(-c2c(Cl)cccc2Cl)c1C(=O)N[C@@H]1C(=O)N2[C@@H]1SC(C)(C)[C@@H]2C(=O)O,inactive
CN1CCN(C2=Nc3cc(Cl)ccc3Nc3ccccc32)CC1,inactive
COC(=O)C1=C(C)NC(C)=C(C(=O)OC)C1c1ccccc1[N+](=O)[O-],inactive

# Block 3
# Species: human
# Medium: microsomes or S9
# Tested at: 2 µM
# Time: 0.5 h
SMILES,remaining compound [%]
OC1(c2ccc(Br)cc2)CCNCC1,23.2
CC1CN(C(=O)C2CCC2)C(C)CN1C(=O)C1CCC1 (centres unmarked),74.7
CC1(C)OC(=O)C2(Cc3ccccc3N3CCC(c4ccccc4)CC32)C(=O)O1 (centres unmarked),0.417
NCCN(C1CCOCC1)S(=O)(=O)c1ccc(C2CCCCC2)cc1,89.2
Cc1nc2cc(=O)[nH]n2c(C)c1CCC(=O)N[C@H](CO)C(C)C,43.4
COc1ccc(NC(=O)c2cc3cc(C)ccc3n2C)c(OC)c1,67.6
O=C1C=C(O)CC(c2ccc(Cl)c(Cl)c2)C1 (centres unmarked),0

# Block 4
# Target: Serine/threonine-protein kinase B-raf (BRAF, Homo sapiens, UniProt P15056)
# UniProt P15056, sequence (whole entry, looked up): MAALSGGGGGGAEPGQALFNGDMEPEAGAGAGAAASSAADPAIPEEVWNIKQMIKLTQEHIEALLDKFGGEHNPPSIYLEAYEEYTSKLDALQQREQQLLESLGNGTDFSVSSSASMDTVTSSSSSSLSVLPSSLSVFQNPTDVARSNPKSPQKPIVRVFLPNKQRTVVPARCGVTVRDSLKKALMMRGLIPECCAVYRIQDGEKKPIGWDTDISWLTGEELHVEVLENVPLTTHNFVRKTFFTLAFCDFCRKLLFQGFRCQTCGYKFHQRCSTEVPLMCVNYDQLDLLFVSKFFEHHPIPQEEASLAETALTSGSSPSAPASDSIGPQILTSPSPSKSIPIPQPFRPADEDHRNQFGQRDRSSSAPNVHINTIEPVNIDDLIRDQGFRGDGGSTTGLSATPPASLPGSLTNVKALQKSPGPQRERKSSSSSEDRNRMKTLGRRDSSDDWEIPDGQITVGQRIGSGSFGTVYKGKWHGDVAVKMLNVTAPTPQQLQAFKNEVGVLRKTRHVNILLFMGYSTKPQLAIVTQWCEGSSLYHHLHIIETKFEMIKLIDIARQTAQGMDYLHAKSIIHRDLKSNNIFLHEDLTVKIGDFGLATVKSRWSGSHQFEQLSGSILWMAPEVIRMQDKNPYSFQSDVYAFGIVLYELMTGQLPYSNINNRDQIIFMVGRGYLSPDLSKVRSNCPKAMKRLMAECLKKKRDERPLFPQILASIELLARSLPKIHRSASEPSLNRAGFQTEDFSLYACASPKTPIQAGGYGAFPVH
# Effect on: enzyme activity
# Mode: inhibitor
# Tested at: 0.5 µM
# Baseline: control
SMILES,remaining activity [%]
O=C1Cc2c([nH]c3ccc(Br)cc23)-c2ccccc2N1,97.7
O=Nc1c(-c2c(O)[nH]c3cc(Br)ccc23)[nH]c2ccccc12,98.2
N#Cc1cnc2cnc(NCc3cccnc3)cc2c1Nc1ccc(F)c(Cl)c1,106
COc1ccc(COc2ccc(Cc3cnc(N)nc3N)cc2OC)cc1,99
O=C(c1cc2cc(O)ccc2[nH]1)c1cc2cc(O)ccc2[nH]1,97.4
CN1CCN(c2ccc3nc(-c4c(N)c5c(F)cccc5[nH]c4=O)[nH]c3c2)CC1,105

# Single results of other studies
SMILES,cell line,method,tested at,time,baseline,measurement,result
CC(C)C[C@H]1NC(=O)[C@H](N(C)C(=O)[C@@H](CC2CCC2)NC(=O)[C@H]2C[C@H](F)CN2C(=O)C2(C(F)(F)F)CC(F)(F)C2)CCCCNC(=O)C2(CC2)NC(=O)[C@@H](Cc2cc(Cl)ccc2Cl)N(C)C1=O,NCI-H446,Vi-Cell counting,200 nM,6 days,DMSO,cell count,1.03 and 0.839 and 1.22

# A few entries again (block 3):
SMILES,remaining compound [%]
CC1(C)OC(=O)C2(Cc3ccccc3N3CCC(c4ccccc4)CC32)C(=O)O1 (centres unmarked),0.417
NCCN(C1CCOCC1)S(=O)(=O)c1ccc(C2CCCCC2)cc1,89.2
Cc1nc2cc(=O)[nH]n2c(C)c1CCC(=O)N[C@H](CO)C(C)C,43.4
COc1ccc(NC(=O)c2cc3cc(C)ccc3n2C)c(OC)c1,67.6
